Published values gathered from unrelated publications.
Compare with care: the assays were run in different laboratories. Several values in a cell are separate wells, animals, samples, runs or records. ± marks the error that the study gave.
CYP1A2: Cytochrome P450 1A2 (CYP1A2, Homo sapiens, UniProt P05177)
UniProt P05177, sequence (whole entry, looked up): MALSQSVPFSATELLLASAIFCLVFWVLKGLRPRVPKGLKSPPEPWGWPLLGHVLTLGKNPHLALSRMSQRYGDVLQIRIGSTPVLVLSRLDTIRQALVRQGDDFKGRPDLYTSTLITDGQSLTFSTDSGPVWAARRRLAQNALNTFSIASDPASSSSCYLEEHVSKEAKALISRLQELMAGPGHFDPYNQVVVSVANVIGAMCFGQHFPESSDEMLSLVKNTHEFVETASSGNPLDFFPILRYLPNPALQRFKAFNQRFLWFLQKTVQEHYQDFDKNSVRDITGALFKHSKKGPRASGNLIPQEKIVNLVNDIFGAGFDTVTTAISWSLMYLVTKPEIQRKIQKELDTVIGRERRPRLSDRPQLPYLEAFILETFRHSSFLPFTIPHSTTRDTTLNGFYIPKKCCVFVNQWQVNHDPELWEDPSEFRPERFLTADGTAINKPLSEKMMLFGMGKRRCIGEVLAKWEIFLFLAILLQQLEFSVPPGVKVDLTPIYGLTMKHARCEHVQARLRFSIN
Tumor necrosis factor receptor superfamily member 9/Nectin-4: Tumor necrosis factor receptor superfamily member 9/Nectin-4 (Homo sapiens, UniProt Q07011+Q96NY8)
UniProt Q96NY8, sequence (whole entry, looked up): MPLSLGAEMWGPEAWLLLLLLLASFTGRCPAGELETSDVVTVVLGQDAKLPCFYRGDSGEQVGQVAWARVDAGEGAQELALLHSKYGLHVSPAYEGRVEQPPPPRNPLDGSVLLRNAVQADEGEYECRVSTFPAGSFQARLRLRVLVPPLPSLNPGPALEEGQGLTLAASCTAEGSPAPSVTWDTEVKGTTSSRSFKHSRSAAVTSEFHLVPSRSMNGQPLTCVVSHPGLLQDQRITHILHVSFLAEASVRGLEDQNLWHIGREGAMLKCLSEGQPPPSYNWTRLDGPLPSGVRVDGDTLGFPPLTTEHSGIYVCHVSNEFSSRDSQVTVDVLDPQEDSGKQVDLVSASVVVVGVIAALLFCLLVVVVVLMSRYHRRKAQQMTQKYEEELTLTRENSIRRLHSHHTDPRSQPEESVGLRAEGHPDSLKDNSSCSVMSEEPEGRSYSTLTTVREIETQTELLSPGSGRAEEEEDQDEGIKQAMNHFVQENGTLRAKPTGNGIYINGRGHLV
UniProt Q07011, sequence (whole entry, looked up): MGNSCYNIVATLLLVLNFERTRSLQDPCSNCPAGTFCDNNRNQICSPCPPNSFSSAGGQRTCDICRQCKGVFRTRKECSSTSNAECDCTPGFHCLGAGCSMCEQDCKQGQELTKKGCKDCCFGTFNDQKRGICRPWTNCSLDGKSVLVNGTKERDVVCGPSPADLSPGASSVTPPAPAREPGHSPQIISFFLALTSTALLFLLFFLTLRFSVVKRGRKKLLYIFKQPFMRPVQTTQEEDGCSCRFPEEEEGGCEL
CYP3A4: Cytochrome P450 3A4 (CYP3A4, Homo sapiens, UniProt P08684)
UniProt Q16853, sequence (whole entry, looked up): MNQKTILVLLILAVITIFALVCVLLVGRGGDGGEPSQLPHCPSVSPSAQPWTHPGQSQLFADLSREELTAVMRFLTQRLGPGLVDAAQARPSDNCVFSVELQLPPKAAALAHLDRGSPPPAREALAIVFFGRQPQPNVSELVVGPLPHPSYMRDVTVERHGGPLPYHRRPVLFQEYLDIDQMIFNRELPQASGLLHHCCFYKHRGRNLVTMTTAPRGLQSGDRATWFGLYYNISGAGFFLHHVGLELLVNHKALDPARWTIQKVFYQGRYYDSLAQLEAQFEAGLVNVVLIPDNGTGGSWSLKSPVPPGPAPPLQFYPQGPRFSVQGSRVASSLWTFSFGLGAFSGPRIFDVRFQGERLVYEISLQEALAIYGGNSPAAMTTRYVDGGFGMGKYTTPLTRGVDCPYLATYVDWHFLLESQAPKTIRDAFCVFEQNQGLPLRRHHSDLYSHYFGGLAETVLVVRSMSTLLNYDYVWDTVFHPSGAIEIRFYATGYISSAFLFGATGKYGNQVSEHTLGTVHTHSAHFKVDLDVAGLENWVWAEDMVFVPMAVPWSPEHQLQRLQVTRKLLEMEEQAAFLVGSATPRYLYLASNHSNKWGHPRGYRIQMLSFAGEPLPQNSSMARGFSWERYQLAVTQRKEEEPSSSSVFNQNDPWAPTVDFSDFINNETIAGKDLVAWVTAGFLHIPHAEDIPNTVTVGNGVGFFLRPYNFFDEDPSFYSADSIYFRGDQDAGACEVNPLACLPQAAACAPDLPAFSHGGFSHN
UniProt P08684, sequence (whole entry, looked up): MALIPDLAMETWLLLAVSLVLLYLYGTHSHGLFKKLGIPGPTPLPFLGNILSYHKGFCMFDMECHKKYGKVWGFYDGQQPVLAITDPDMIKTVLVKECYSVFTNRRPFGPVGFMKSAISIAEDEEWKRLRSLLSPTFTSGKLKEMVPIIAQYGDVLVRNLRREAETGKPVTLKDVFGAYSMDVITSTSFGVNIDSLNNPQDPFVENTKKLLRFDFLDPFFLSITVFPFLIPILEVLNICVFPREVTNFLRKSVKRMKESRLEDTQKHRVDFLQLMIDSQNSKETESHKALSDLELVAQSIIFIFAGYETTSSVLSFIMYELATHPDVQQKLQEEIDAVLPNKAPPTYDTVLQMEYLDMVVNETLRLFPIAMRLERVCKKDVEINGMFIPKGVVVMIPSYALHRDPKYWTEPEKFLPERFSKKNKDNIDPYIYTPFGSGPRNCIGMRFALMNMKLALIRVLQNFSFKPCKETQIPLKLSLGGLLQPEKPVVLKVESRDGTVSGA
UniProt Q14524, sequence (whole entry, looked up): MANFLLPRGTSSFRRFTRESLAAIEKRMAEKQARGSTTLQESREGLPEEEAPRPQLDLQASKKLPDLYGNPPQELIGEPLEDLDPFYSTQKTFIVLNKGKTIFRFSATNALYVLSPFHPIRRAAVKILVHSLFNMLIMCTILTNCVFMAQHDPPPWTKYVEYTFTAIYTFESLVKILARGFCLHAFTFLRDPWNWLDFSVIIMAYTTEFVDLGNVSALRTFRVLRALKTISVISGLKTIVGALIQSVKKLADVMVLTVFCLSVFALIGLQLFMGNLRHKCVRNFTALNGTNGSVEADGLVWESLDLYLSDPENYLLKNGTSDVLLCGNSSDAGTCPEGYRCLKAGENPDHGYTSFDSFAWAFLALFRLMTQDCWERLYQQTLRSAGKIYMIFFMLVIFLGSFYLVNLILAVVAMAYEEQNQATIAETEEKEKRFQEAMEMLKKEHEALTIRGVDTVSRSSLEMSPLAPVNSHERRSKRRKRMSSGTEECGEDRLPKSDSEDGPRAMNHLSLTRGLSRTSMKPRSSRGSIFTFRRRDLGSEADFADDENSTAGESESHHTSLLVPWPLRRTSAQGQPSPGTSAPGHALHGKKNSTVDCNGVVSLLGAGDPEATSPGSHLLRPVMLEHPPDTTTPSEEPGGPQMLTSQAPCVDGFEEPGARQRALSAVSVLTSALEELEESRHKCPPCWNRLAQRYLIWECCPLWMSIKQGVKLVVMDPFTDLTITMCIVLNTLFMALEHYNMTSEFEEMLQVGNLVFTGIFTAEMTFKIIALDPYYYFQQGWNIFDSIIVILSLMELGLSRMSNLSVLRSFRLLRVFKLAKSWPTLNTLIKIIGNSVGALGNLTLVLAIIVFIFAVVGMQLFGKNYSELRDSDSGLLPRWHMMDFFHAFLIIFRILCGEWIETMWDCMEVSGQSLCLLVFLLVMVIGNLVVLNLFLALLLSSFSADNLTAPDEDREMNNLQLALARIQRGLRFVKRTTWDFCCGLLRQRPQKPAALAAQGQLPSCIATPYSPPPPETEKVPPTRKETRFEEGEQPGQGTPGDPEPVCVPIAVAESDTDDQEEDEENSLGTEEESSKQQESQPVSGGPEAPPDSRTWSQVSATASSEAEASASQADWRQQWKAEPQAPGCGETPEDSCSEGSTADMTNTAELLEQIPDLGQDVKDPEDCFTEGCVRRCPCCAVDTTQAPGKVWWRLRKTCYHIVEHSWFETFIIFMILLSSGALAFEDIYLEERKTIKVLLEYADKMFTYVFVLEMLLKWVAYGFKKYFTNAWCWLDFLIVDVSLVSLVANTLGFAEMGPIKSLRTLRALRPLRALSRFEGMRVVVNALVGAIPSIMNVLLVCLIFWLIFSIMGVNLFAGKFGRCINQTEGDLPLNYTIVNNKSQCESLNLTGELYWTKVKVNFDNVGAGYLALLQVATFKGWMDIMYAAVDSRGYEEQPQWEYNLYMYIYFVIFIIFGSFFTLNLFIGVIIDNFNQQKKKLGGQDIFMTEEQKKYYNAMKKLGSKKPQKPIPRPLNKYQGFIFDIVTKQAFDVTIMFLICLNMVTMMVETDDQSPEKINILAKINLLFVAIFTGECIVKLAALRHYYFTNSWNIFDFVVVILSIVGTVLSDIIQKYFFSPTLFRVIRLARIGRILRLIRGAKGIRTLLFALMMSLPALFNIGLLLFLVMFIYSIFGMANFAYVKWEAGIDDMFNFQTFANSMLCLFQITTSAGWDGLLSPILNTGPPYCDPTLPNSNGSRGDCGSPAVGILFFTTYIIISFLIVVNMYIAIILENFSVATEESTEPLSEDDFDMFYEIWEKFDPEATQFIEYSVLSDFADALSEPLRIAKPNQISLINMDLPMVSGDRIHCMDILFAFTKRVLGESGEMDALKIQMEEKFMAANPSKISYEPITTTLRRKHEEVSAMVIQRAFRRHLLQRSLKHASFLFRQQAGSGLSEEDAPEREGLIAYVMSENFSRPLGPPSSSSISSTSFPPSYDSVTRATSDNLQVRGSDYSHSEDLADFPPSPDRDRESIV

SMILES	target	test	test system	conditions	how to read	endpoint	result
Cn1c(=O)c2c(ncn2C)n(C)c1=O	CYP1A2		human, plasma	oral, 200 mg, day 1, alone, geometric mean		AUC(0-inf)	31700 ng·h/mL
Cc1oc2ccccc2c1Cc1cc(I)c(OCC(=O)O)c(I)c1	Voltage-gated inwardly rectifying potassium channel KCNH2 (KCNH2, Homo sapiens, UniProt Q12809, S620T)	potassium current, activator, whole-cell patch clamp	HEK293 expressing hERG1-S620T	10 µM		current enhancement	299 ± 41%
CC(C)=CCc1c(O)cc(O)c2c1O[C@H](c1ccc(O)cc1)CC2=O	CYP1A2			1 µM, pH 7.4		inhibition	55.8 ± 0.7%
CCCC[C@@H]1NC(=O)[C@H](Cc2ccc(O)cc2)NC(=O)[C@@H](C)N(C)C(=O)[C@H](CC(=O)O)NC(=O)[C@H](C)NC(=O)[C@H](Cc2ccccc2)NC(=O)[C@@H]2CSCCC(=O)N3CN(CN(C3)C(=O)CCSC[C@H](NC(C)=O)C(=O)N[C@@H](CC(C)(C)C)C(=O)N3CCC[C@H]3C(=O)N[C@@H](CCC(=O)O)C(=O)N[C@H](CCCCNC(=O)CCc3cn(CCOCCOCCOCCN(CCOCCOCCOCCC(=O)N[C@H]4CSCCC(=O)N5CN6CN(C5)C(=O)CCSC[C@H](NC(=O)[C@@H](CC(=O)O)NC(=O)[C@H](Cc5cccc7ccccc57)NC(=O)[C@@H]5CCCN5C4=O)C(=O)N[C@@H](CCSC)C(=O)N[C@@H](CCCCNC(=N)N)C(=O)N[C@@H](CC(=O)O)C(=O)N[C@@H](Cc4c[nH]c5ccccc45)C(=O)N[C@@H](CO)C(=O)N[C@@H]([C@@H](C)O)C(=O)N4CCC[C@H]4C(=O)N4C[C@H](O)C[C@H]4C(=O)N[C@@H](Cc4c[nH]c5ccccc45)C(=O)N[C@H](C(N)=O)CSCCC6=O)CCOCCOCCOCCn4cc(CCC(=O)NCCCC[C@H]5NC(=O)[C@H](CCC(=O)O)NC(=O)[C@@H]6CCCN6C(=O)[C@H](CC(C)(C)C)NC(=O)[C@@H](NC(C)=O)CSCCC(=O)N6CN7CN(C6)C(=O)CCSC[C@H](NC(=O)[C@H](Cc6ccc(O)cc6)NC(=O)[C@@H]6CCCN6C5=O)C(=O)N[C@@H](Cc5ccccc5)C(=O)N[C@@H](C)C(=O)N[C@@H](CC(=O)O)C(=O)N(C)[C@H](C)C(=O)N[C@@H](Cc5ccc(O)cc5)C(=O)N[C@@H](CCCC)C(=O)N[C@H](C(N)=O)CSCCC7=O)nn4)nn3)C(=O)N3CCC[C@H]3C(=O)N[C@@H](Cc3ccc(O)cc3)C(=O)N2)C(=O)CCSC[C@@H](C(N)=O)NC1=O	Tumor necrosis factor receptor superfamily member 9/Nectin-4	reporter gene, agonist, luciferase reporter	CD137 Jurkat reporter with HT-1376	6 h, geometric mean	baseline: wells without compound	Emax	75 fold
Cc1cc(Nc2ncnc3ccc(NC4=NC(C)(CO)CO4)cc23)ccc1Oc1ccn2ncnc2c1 (stereo not shown)	CYP3A4		human, plasma	oral, 300 mg tucatinib single dose, day 1, tucatinib alone		AUC(0-t) (arithmetic mean)	506 ng·h/mL
CCCC[C@@H]1NC(=O)[C@H](Cc2ccc(O)cc2)NC(=O)[C@@H]2CCCN2C(=O)[C@H](CC(=O)O)NC(=O)[C@H](C)NC(=O)[C@H](Cc2ccccc2)NC(=O)[C@@H]2CSCCC(=O)N3CN(CN(C3)C(=O)CCSC[C@@H](C(=O)N[C@@H](CNC(=O)CCc3cn(CC(=O)N[C@H]4CSCCC(=O)N5CN6CN(C5)C(=O)CCSC[C@H](NC(=O)[C@@H](CC(=O)O)NC(=O)[C@H](Cc5cccc7ccccc57)NC(=O)[C@@H]5CCCN5C4=O)C(=O)N[C@@H](CCSC)C(=O)N[C@@H](CCCCNC(=N)N)C(=O)N[C@@H](CC(=O)O)C(=O)N[C@@H](Cc4c[nH]c5ccccc45)C(=O)N[C@@H](CO)C(=O)N[C@@H]([C@@H](C)O)C(=O)N4CCC[C@H]4C(=O)N4C[C@H](O)C[C@H]4C(=O)N[C@@H](Cc4c[nH]c5ccccc45)C(=O)N[C@H](C(N)=O)CSCCC6=O)nn3)C(N)=O)NC1=O)C(=O)CCSC[C@H](NC(C)=O)C(=O)N[C@@H](CC(C)(C)C)C(=O)N1CCC[C@H]1C(=O)N[C@@H](CCC(=O)O)C(=O)N[C@H](C)C(=O)N1CCC[C@H]1C(=O)N[C@@H](Cc1ccc(O)cc1)C(=O)N2	Tumor necrosis factor receptor superfamily member 9/Nectin-4	reporter gene, agonist, luciferase reporter	CD137 Jurkat reporter with HT-1376	6 h, geometric mean	baseline: wells without compound	Emax	37 fold
C=CC(=O)N1C[C@H](Nc2ncnc3[nH]ccc23)CC[C@@H]1C	CYP	substrate	human, plasma	oral, 50 mg single dose, cpd alone		AUC(0-inf)	449 ng·h/mL
CC[C@H]1[C@@H](O)[C@@H]2[C@H](CC[C@]3(C)[C@@H]([C@H](C)CCNC(=O)NS(=O)(=O)c4ccc(C(C)(C)C)cc4)CC[C@@H]23)[C@@]2(C)CC[C@@H](O)C[C@@H]12	CYP3A4		human, plasma	dose not given, with: fluconazole		half-life mean	22.7 h
COc1cc(O)c(CC=C(C)C)c(O)c1C(=O)/C=C/c1ccc(O)cc1	CYP2B6 (human)	enzyme activity, inhibitor	human liver microsomes	10 µM, pH 7.4, with: bupropion		inhibition	43.9 ± 1.3%
CCCC[C@@H]1NC(=O)[C@H](Cc2ccc(O)cc2)NC(=O)[C@@H]2CCCN2C(=O)[C@H](CC(=O)O)NC(=O)[C@H](C)NC(=O)[C@H](Cc2ccccc2)NC(=O)[C@@H]2CSCCC(=O)N3CN(CN(C3)C(=O)CCSC[C@@H](C(=O)N[C@@H](C)C(N)=O)NC1=O)C(=O)CCSC[C@H](NC(C)=O)C(=O)N[C@@H](CC(C)(C)C)C(=O)N1CCC[C@H]1C(=O)N[C@@H](CCC(=O)O)C(=O)N[C@H](CCCCNC(=O)CCc1cn(CC(=O)N[C@H]3CSCCC(=O)N4CN5CN(C4)C(=O)CCSC[C@H](NC(=O)[C@@H](CC(=O)O)NC(=O)[C@H](Cc4cccc6ccccc46)NC(=O)[C@@H]4CCCN4C3=O)C(=O)N[C@@H](CCSC)C(=O)N[C@@H](CCCCNC(=N)N)C(=O)N[C@@H](CC(=O)O)C(=O)N[C@@H](Cc3c[nH]c4ccccc34)C(=O)N[C@@H](CO)C(=O)N[C@@H]([C@@H](C)O)C(=O)N3CCC[C@H]3C(=O)N3C[C@H](O)C[C@H]3C(=O)N[C@@H](Cc3c[nH]c4ccccc34)C(=O)N[C@H](C(N)=O)CSCCC5=O)nn1)C(=O)N1CCC[C@H]1C(=O)N[C@@H](Cc1ccc(O)cc1)C(=O)N2	Tumor necrosis factor receptor superfamily member 9/Nectin-4	reporter gene, agonist, luciferase reporter	CD137 Jurkat reporter with HT-1376	6 h, geometric mean	baseline: wells without compound	Emax	44 fold
NCc1cc2c(cc1F)C(=O)N(C1CCC(=O)NC1=O)C2 (stereo not shown)	Amine oxidase [copper-containing] 3 (AOC3, Homo sapiens, UniProt Q16853)	substrate, LC-MS/MS	cirrhotic human liver lysate	1000.00 µM, 60 min, pH 7.4		concentration	1360 ng/mL and 1700 ng/mL
CCc1c2c(nc3ccc(O)cc13)-c1cc3c(c(=O)n1C2)COC(=O)[C@]3(O)CC	UGT (mouse)	glucuronidation, substrate	FVB mouse, intestinal S9 fraction	30 min, pH 7.4		Km	2.63 ± 3.39 µM
CCCC[C@@H]1NC(=O)[C@H](Cc2ccc(O)cc2)NC(=O)[C@@H]2CCCN2C(=O)[C@H](CC(=O)O)NC(=O)[C@H](C)NC(=O)[C@H](Cc2ccccc2)NC(=O)[C@@H]2CSCCC(=O)N3CN(CN(C3)C(=O)CCSC[C@@H](C(=O)N[C@@H](CNC(=O)CCOCCOCCOCCOCCOCCOCCOCCOCCOCCOCCOCCOCCn3cc(CCC(=O)NCCC(=O)N(C)CC(=O)N(C)CC(=O)N(C)CC(=O)N(C)CC(=O)N(C)CC(=O)N(C)CC(=O)N(C)CC(=O)N(C)CC(=O)N(C)CC(=O)N(C)CC(=O)N[C@H]4CSCCC(=O)N5CN6CN(C5)C(=O)CCSC[C@H](NC(=O)[C@@H](CC(=O)O)NC(=O)[C@H](Cc5cccc7ccccc57)NC(=O)[C@@H]5CCCN5C4=O)C(=O)N[C@@H](CCSC)C(=O)N[C@@H](CCCCNC(=N)N)C(=O)N[C@@H](CC(=O)O)C(=O)N[C@@H](Cc4c[nH]c5ccccc45)C(=O)N[C@@H](CO)C(=O)N[C@@H]([C@@H](C)O)C(=O)N4CCC[C@H]4C(=O)N4C[C@H](O)C[C@H]4C(=O)N[C@@H](Cc4c[nH]c5ccccc45)C(=O)N[C@H](C(N)=O)CSCCC6=O)nn3)C(N)=O)NC1=O)C(=O)CCSC[C@H](NC(C)=O)C(=O)N[C@@H](CC(C)(C)C)C(=O)N1CCC[C@H]1C(=O)N[C@@H](CCC(=O)O)C(=O)N[C@H](C)C(=O)N1CCC[C@H]1C(=O)N[C@@H](Cc1ccc(O)cc1)C(=O)N2	Tumor necrosis factor receptor superfamily member 9/Nectin-4	reporter gene, agonist, luciferase reporter	CD137 Jurkat reporter with HT-1376	6 h, geometric mean	baseline: wells without compound	Emax	36 fold
Cn1cc2c(C(=O)O)ccc(NS(=O)(=O)c3ccc(OCC4CCC4)c(Cl)c3)c2n1	Sodium channel protein type 5 subunit alpha (SCN5A, Homo sapiens, UniProt Q14524)	antagonist				IC50	> 100 µM
CCCC[C@@H]1NC(=O)[C@H](Cc2ccc(O)cc2)NC(=O)[C@@H]2CCCN2C(=O)[C@H](CC(=O)O)NC(=O)[C@H](C)NC(=O)[C@H](Cc2ccccc2)NC(=O)[C@@H]2CSCCC(=O)N3CN(CN(C3)C(=O)CCSC[C@@H](C(=O)N[C@@H](C)C(N)=O)NC1=O)C(=O)CCSC[C@H](NC(C)=O)C(=O)N[C@@H](CC(C)(C)C)C(=O)N1CCC[C@H]1C(=O)N[C@@H](CCC(=O)O)C(=O)N[C@H](CCCCNC(=O)CCc1cn(CCOCCOCCOCCOCCOCCOCCOCCOCCOCCOCCNC(=O)CCOCCN(CCOCCC(=O)NCCOCCOCCOCCOCCOCCOCCOCCOCCOCCOCCn3cc(CCC(=O)NCCCC[C@H]4NC(=O)[C@H](CCC(=O)O)NC(=O)[C@@H]5CCCN5C(=O)[C@H](CC(C)(C)C)NC(=O)[C@@H](NC(C)=O)CSCCC(=O)N5CN6CN(C5)C(=O)CCSC[C@H](NC(=O)[C@H](Cc5ccc(O)cc5)NC(=O)[C@@H]5CCCN5C4=O)C(=O)N[C@@H](Cc4ccccc4)C(=O)N[C@@H](C)C(=O)N[C@@H](CC(=O)O)C(=O)N4CCC[C@H]4C(=O)N[C@@H](Cc4ccc(O)cc4)C(=O)N[C@@H](CCCC)C(=O)N[C@H](C(=O)N[C@@H](C)C(N)=O)CSCCC6=O)nn3)CCOCCC(=O)NCCOCCOCCOCCOCCOCCOCCOCCOCCOCCOCCn3cc(CCC(=O)N[C@H]4CSCCC(=O)N5CN6CN(C5)C(=O)CCSC[C@H](NC(=O)[C@@H](CC(=O)O)NC(=O)[C@H](Cc5cccc7ccccc57)NC(=O)[C@@H]5CCCN5C4=O)C(=O)N[C@@H](CCSC)C(=O)N[C@@H](CCCCNC(=N)N)C(=O)N[C@@H](CC(=O)O)C(=O)N[C@@H](Cc4c[nH]c5ccccc45)C(=O)N[C@@H](CO)C(=O)N[C@@H]([C@@H](C)O)C(=O)N4CCC[C@H]4C(=O)N4C[C@H](O)C[C@H]4C(=O)N[C@@H](Cc4c[nH]c5ccccc45)C(=O)N[C@H](C(N)=O)CSCCC6=O)nn3)nn1)C(=O)N1CCC[C@H]1C(=O)N[C@@H](Cc1ccc(O)cc1)C(=O)N2	Tumor necrosis factor receptor superfamily member 9/Nectin-4	reporter gene, agonist, luciferase reporter	CD137 Jurkat reporter with HT-1376	6 h, geometric mean	baseline: wells without compound	Emax	40 fold
O=C(c1ccc(C(=O)N2CCC(N3CCCC3)CC2)c(Nc2ccccc2)c1)N1CCC(N2CCCC2)CC1	Lethal(3)malignant brain tumor-like protein 3 (Homo sapiens, UniProt Q96JM7)	FRAP	human cells	0.5 µM		FRAP recovery half-time	20.3 s

A few entries again:
SMILES	target	test	test system	conditions	how to read	endpoint	result
CCc1c2c(nc3ccc(O)cc13)-c1cc3c(c(=O)n1C2)COC(=O)[C@]3(O)CC	UGT (mouse)	glucuronidation, substrate	FVB mouse, intestinal S9 fraction	30 min, pH 7.4		Km	2.63 ± 3.39 µM
CCCC[C@@H]1NC(=O)[C@H](Cc2ccc(O)cc2)NC(=O)[C@@H]2CCCN2C(=O)[C@H](CC(=O)O)NC(=O)[C@H](C)NC(=O)[C@H](Cc2ccccc2)NC(=O)[C@@H]2CSCCC(=O)N3CN(CN(C3)C(=O)CCSC[C@@H](C(=O)N[C@@H](CNC(=O)CCOCCOCCOCCOCCOCCOCCOCCOCCOCCOCCOCCOCCn3cc(CCC(=O)NCCC(=O)N(C)CC(=O)N(C)CC(=O)N(C)CC(=O)N(C)CC(=O)N(C)CC(=O)N(C)CC(=O)N(C)CC(=O)N(C)CC(=O)N(C)CC(=O)N(C)CC(=O)N[C@H]4CSCCC(=O)N5CN6CN(C5)C(=O)CCSC[C@H](NC(=O)[C@@H](CC(=O)O)NC(=O)[C@H](Cc5cccc7ccccc57)NC(=O)[C@@H]5CCCN5C4=O)C(=O)N[C@@H](CCSC)C(=O)N[C@@H](CCCCNC(=N)N)C(=O)N[C@@H](CC(=O)O)C(=O)N[C@@H](Cc4c[nH]c5ccccc45)C(=O)N[C@@H](CO)C(=O)N[C@@H]([C@@H](C)O)C(=O)N4CCC[C@H]4C(=O)N4C[C@H](O)C[C@H]4C(=O)N[C@@H](Cc4c[nH]c5ccccc45)C(=O)N[C@H](C(N)=O)CSCCC6=O)nn3)C(N)=O)NC1=O)C(=O)CCSC[C@H](NC(C)=O)C(=O)N[C@@H](CC(C)(C)C)C(=O)N1CCC[C@H]1C(=O)N[C@@H](CCC(=O)O)C(=O)N[C@H](C)C(=O)N1CCC[C@H]1C(=O)N[C@@H](Cc1ccc(O)cc1)C(=O)N2	Tumor necrosis factor receptor superfamily member 9/Nectin-4	reporter gene, agonist, luciferase reporter	CD137 Jurkat reporter with HT-1376	6 h, geometric mean	baseline: wells without compound	Emax	36 fold
